Assay results from different studies.
Parts stem from different laboratories: compare values within a part only. Values joined by “and” are separate records of one study, mostly repeats; a detail may differ.
UniProt P31749, sequence (whole entry, looked up): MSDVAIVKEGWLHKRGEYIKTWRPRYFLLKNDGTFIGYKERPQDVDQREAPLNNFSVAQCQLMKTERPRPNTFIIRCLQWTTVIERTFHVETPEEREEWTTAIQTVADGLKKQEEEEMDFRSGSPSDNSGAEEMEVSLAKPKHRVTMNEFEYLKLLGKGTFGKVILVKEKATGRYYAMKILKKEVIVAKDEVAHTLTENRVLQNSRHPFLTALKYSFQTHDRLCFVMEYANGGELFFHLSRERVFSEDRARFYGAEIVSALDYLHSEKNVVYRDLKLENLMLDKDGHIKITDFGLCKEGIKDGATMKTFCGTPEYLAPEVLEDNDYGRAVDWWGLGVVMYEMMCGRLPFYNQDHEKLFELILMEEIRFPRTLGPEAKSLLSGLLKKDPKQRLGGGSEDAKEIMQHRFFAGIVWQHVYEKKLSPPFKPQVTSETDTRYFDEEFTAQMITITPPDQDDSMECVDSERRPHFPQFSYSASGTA

Sample 1
Cell line: HaCaT
Concentration: 100 µM
Time: 36 h
Measurement: viability
Compound = Cc1c(N(C)C)c(=O)n(-c2ccccc2)n1C; result = 88.7%
Compound = COc1nc2ccc(Br)cc2cc1[C@@H](c1ccccc1)[C@@](O)(CCN(C)C)c1cccc2ccccc12; result = 81.5%
Compound = COc1cc(C)c(/C=C/C(C)=C/C=C/C(C)=C/C(=O)O)c(C)c1C; result = 91.3%
Compound = CN(C)CCc1c[nH]c2ccc(C[C@H]3COC(=O)N3)cc12; result = 80.7%
Compound = CN1CCN(CCCN2c3ccccc3Sc3ccc(C(F)(F)F)cc32)CC1; result = 5.92%
Compound = OCCN1CCN(CC/C=C2/c3ccccc3Sc3ccc(C(F)(F)F)cc32)CC1; result = 6.36%

Sample 2
SMILES: CC(=O)N[C@@H](Cc1c[nH]c2ccccc12)C(=O)N[C@@H](CCC(=O)C=[N+]=[N-])C(=O)OC(C)C
Dose: dose not given
Reference: vehicle
Measurement: log2 fold change
assay = item: 2'-deoxyguanosine; test system = mouse, EL4 tumour-bearing, EL4 tumour; result = 0.322
assay = item: alpha-hydroxyisovalerate; test system = mouse, EL4 tumour-bearing, EL4 tumour; result = -0.0606
assay = item: isovalerylcarnitine; test system = mouse, EL4 tumour, tumour; result = -0.454
assay = item: 2'-AMP; test system = mouse, EL4 tumour-bearing, EL4 tumour; result = 0.619
assay = item: taurine; test system = mouse, EL4 tumour-bearing, EL4 tumour; result = 0.198
assay = item: 3-methylhistidine; test system = mouse, EL4 tumour-bearing, EL4 tumour; result = -0.494
assay = item: 2'-deoxyadenosine 5'-monophosphate; test system = mouse, EL4 tumour, tumour; result = -1.46
assay = item: quinate; test system = mouse, EL4 tumour-bearing, EL4 tumour; result = 2.71

Sample 3
Target: DNA polymerase theta, ATPase domain (POLQ, Homo sapiens, UniProt O75417)
UniProt O75417, sequence (whole entry, unmodified, looked up): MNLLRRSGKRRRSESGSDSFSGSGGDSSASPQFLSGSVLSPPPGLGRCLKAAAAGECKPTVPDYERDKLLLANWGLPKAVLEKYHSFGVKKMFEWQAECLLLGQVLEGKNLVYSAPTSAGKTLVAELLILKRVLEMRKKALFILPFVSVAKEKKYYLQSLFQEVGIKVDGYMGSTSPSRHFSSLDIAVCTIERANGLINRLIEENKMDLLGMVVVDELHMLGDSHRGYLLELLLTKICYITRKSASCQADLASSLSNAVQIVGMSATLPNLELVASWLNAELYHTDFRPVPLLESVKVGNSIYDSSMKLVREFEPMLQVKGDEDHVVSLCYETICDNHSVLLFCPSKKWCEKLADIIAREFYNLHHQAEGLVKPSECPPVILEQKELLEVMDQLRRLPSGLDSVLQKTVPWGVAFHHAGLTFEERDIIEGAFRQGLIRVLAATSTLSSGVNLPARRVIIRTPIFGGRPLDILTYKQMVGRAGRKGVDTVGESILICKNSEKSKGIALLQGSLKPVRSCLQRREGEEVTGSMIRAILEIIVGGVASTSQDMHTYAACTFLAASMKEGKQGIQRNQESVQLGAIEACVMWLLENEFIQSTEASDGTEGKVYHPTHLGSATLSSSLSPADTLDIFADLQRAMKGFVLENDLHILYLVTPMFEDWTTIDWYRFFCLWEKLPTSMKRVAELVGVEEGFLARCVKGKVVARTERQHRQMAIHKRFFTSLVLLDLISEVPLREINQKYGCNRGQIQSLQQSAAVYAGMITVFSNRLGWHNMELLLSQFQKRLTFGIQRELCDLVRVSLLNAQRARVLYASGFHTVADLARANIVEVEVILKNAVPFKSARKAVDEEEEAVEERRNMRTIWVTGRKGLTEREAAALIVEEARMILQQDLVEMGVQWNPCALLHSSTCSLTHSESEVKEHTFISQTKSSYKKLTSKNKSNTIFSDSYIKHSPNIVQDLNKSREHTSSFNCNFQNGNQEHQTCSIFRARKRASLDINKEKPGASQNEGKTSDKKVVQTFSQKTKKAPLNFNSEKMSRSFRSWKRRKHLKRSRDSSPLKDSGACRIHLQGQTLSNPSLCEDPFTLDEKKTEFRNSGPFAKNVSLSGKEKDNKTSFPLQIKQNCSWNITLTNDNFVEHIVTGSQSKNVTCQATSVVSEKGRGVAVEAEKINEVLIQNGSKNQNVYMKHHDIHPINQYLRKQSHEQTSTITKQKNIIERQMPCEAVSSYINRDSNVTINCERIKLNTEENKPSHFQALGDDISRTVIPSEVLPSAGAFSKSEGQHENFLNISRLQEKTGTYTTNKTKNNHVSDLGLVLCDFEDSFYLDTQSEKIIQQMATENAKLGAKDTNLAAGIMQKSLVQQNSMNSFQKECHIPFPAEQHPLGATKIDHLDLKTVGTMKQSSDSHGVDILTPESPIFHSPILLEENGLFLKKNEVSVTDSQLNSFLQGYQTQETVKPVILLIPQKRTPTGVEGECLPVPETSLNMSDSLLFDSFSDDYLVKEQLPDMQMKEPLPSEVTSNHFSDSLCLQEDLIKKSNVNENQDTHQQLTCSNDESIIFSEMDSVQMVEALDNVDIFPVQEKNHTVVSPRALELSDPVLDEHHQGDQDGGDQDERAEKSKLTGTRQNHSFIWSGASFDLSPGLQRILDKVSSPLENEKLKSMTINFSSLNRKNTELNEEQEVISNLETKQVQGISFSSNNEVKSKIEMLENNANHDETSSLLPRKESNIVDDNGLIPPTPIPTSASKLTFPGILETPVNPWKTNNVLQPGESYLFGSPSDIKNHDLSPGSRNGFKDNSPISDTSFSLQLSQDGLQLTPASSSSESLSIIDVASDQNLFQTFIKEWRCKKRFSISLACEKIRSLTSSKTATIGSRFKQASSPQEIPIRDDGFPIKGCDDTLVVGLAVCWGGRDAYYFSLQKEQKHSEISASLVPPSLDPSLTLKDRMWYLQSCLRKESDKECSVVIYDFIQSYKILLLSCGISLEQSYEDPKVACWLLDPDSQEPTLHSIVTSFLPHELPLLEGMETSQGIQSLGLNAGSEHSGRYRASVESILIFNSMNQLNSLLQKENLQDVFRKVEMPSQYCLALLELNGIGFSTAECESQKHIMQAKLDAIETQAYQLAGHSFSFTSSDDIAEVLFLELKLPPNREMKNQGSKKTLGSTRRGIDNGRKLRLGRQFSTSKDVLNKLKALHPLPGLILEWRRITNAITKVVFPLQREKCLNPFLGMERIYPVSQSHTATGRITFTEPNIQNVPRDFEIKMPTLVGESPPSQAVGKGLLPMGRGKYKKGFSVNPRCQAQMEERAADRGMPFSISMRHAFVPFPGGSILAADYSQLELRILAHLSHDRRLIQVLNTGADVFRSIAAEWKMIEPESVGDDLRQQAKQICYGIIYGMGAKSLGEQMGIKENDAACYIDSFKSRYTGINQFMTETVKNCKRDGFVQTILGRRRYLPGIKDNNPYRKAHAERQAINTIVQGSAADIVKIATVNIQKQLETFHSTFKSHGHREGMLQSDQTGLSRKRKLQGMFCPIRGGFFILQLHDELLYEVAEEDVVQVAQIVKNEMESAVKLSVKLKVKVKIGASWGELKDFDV
Read-out: enzyme activity
Mode: inhibitor
Concentration: 77 µM
Reference: untreated
Measurement: remaining activity
Compound = Cc1cc(C)c(Nc2ccnc(Nc3ccc(C#N)cc3)n2)c(C)c1; result = 103%
Compound = CN1CCCC(n2nc(Cc3ccc(Cl)cc3)c3ccccc3c2=O)CC1 (centres unmarked); result = 111%
Compound = C[C@@H]1C(=O)O[C@H]2C[C@@]34[C@H]5C[C@@H](C(C)(C)C)[C@]36[C@@H](OC(=O)[C@@H]6O)O[C@@]4(C(=O)O5)[C@]21O; result = 103% and 98.8%
Compound = C=CCn1c(=O)c2c(nc(-c3ccc(S(=O)(=O)O)cc3)n2C)n(C)c1=O; result = 102%

Single results of other studies
SMILES = CCN(CC)CCCCN1c2ccccc2Oc2ccc(Cl)cc21; target = RAC-alpha serine/threonine-protein kinase (AKT1, Homo sapiens, UniProt P31749); assay = enzyme activity, inhibitor, radiometric; measurement = IC50; result = > 30000 nM
SMILES = COCc1nc2cnc3cc(-c4c(C)noc4C)c(OC[C@H]4CCNC4)cc3c2n1[C@H](C)c1ccccc1; target = GABAA receptor; assay = binding; measurement = Ki; result = 1600 nM

Excerpt of the above (sample 2):
assay = item: 2'-AMP; test system = mouse, EL4 tumour-bearing, EL4 tumour; result = 0.619
assay = item: isovalerylcarnitine; test system = mouse, EL4 tumour, tumour; result = -0.454
assay = item: 3-methylhistidine; test system = mouse, EL4 tumour-bearing, EL4 tumour; result = -0.494
